# Experimental data of several laboratories.
# Lines come from different studies, so protocols differ. “And” joins repeats or separate records; there may be more than shown. ± marks the error that the study gave.
SMILES,cell line,effect on,method,time,setting,IC50
CC[C@H](C)[C@H](NC(=O)[C@H](C)NC(=O)[C@@H](N)Cc1c[nH]cn1)C(=O)N[C@@H](Cc1ccc(O)cc1)C(=O)N1CCC[C@H]1C(=O)N[C@@H](CCCNC(=N)N)C(=O)N[C@@H](Cc1c[nH]cn1)C(=O)N[C@@H](CO)C(=O)N[C@@H](Cc1c[nH]c2ccccc12)C(=O)N[C@H](C(=O)N[C@@H](Cc1c[nH]c2ccccc12)C(=O)N[C@@H](CCC(=O)O)C(=O)N[C@@H](CCCCN)C(=O)N[C@@H](CCCCN)C(=O)N[C@@H](CC(C)C)C(=O)N[C@@H](CCC(=O)O)C(=O)N[C@H](C(=O)N[C@@H](C)C(=O)N[C@H](C(=O)N[C@@H](CC(N)=O)C(=O)N[C@@H](CC(C)C)C(=O)N[C@@H](C)C(=O)N[C@@H](Cc1c[nH]c2ccccc12)C(=O)N[C@H](C(=O)N[C@@H](C)C(=O)NCC(=O)N[C@@H](CC(N)=O)C(=O)N[C@@H](CO)C(=O)N[C@@H](CC(N)=O)C(=O)N[C@@H](CCCCN)C(=O)N[C@@H](Cc1c[nH]c2ccccc12)C(=O)N[C@H](C(=O)N[C@@H](Cc1c[nH]c2ccccc12)C(=O)N[C@@H](CCCCN)C(N)=O)[C@@H](C)O)[C@@H](C)O)C(C)C)[C@@H](C)O)[C@@H](C)O,MEC1,cell growth or viability,flow cytometry,90 min,,> 6.8 µM
Cc1ccc2c(Cl)cc(Cl)c([O-])c2n1.Cc1ccc2c(Cl)cc(Cl)c([O-])c2n1.[Co+2].c1cnc2c(c1)c1nccnc1c1cccnc12,HL-7702 normal hepatocytes,cell viability,MTT,48 h,,60.2 ± 0.77 µM
COC(=O)[C@H](C(C)C)N(C)C(=O)[C@H](C(C)C)N(C)C(=O)[C@@H]1CCCN1C(=O)[C@H](C)N(C)C(=O)OC(C)(C)C,HEK293,cell growth or viability,SRB,,,413 µM and 368 µM and 325 µM
Oc1cccc2cccnc12.Oc1cccc2cccnc12.[Cl][Fe]([Cl])[Cl],BL2 Burkitt lymphoma cells,cell viability,MTT,48 h,,~1 µM
CC(=O)N[C@H](C(=O)N[C@@H](CCCNC(=N)N)C(=O)N[C@@H](CCCCN)C(=O)N[C@@H](CCCNC(=N)N)C(=O)N[C@]1(C)CCCCCCC=CCCC[C@@](C)(C(=O)N[C@@H](CCCNC(=N)N)C(=O)N[C@@H](CCC(=O)O)C(=O)N[C@@H](CC(C)C)C(=O)N[C@H](C(=O)N[C@@H](CCC(=O)O)C(N)=O)C(C)C)NC(=O)[C@H](CCC(N)=O)NC(=O)[C@H](CC(C)C)NC(=O)[C@H](CC(C)C)NC(=O)[C@H](CCCNC(=N)N)NC(=O)[C@H](CCCNC(=N)N)NC(=O)[C@H](CC(C)C)NC1=O)C(C)C,A-431,cell viability,,18 h,serum-free,2.99 µM
Cc1cc(Oc2nc(N3CC[C@@H](c4ccncc4)C3)ncc2F)[nH]n1,A2780,cell proliferation,,,,16.2 µM
Cc1cc(Nc2nc(C[C@@]3(C(=O)O)CCN(Cc4cccc(Cl)c4F)[C@H](C)C3)cc(C)c2F)[nH]n1,BT-20,cell growth or viability,ATP luminescence,5 days,,0.038 µM
CCCCCCCC(=O)NCCCC[C@H](NC(=O)CCCCCCC)C(=O)N[C@@H](CCCCNC(=O)CCCCCCC)C(=O)NCC(=O)NCC(=O)NCC(=O)N[C@@H](CS)C(=O)N[C@@H](CCCNC(=N)N)C(=O)N[C@@H](CCCCN)C(=O)N1CCC[C@H]1C(=O)N[C@@H](CS)C(=O)N[C@@H](CCCNC(=N)N)C(=O)N[C@@H](CCCCN)C(=O)N1CCC[C@H]1C(=O)N[C@@H](CS)C(=O)N[C@@H](CCCNC(=N)N)C(=O)N[C@@H](CCCCN)C(=O)N1CCC[C@H]1C(N)=O,HCE-T,cytotoxicity,MTT,24 h,,139 µM
